Results collected from several papers.
Every numbered part comes from another study and shows a few of its results, in no order.

Study 1
Target: Histone acetyltransferase KAT6A, winged helix 1, GST fusion (KAT6A, Homo sapiens, UniProt Q92794, residues 1-85)
Method: protein binding microarray
Form: double-stranded DNA, one strand shown
Medium: in vitro
Concentration: not given
Setting: 8-mer, flanks averaged, mean of 2 arrays, mostly near background
Baseline: not given
Reading: higher = stronger binding
Quantity: E-score
Residues (chain): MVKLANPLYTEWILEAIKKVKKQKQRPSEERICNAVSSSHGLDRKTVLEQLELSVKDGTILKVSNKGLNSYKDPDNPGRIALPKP
CCTTTGCA: -0.143
GCGCCCTA: 0.29
ACTTAGAA: -0.204
ATTTTGCG: -0.0344
AGATAACT: -0.0971
GGTAGAGA: -0.0891
AGTTAATC: -0.149
CTATTGAG: -0.151
GGGCCAGA: -0.0219
GTTTTACA: -0.0741
AAATTAGG: -0.0596
GAGCGCCC: 0.263
AACTAGCT: 0.0198
GCCGGTCC: 0.38
GAGGTGGC: -0.147
CACCGTAG: 0.291
AGTTTGGG: -0.168
GAAACGAA: -0.182
GAAACGGA: 0.125

Study 2
Target: Protein C-ets-1 (ETS1, Homo sapiens, UniProt P14921, residues 1-441, full length assumed)
Method: protein-binding microarray
Form: double-stranded DNA, one strand shown
Medium: in vitro
Concentration: not given
Setting: k-mer, scored over probes, only values ≥0.25
Reading: higher = stronger binding
Quantity: E-score
Target sequence (chain): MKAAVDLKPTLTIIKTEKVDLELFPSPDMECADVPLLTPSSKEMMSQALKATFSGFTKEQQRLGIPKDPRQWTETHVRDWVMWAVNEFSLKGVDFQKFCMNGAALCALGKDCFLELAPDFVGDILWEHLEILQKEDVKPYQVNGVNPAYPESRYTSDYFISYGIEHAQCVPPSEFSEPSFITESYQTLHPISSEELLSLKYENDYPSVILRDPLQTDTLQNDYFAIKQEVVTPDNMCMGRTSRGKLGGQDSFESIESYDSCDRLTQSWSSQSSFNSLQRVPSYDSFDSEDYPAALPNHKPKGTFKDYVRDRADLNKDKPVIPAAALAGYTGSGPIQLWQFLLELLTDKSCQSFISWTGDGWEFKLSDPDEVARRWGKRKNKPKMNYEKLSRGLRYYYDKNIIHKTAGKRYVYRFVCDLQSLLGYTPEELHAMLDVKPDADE
CATTTCCG: 0.489
TCCGCACA: 0.334
AACGGATA: 0.428
CCCGGGAA: 0.338
CCCACATC: 0.271
TCCCGCCA: 0.292
CGACAGGA: 0.408
ACTACCGG: 0.415
CACATTTC: 0.299
AATTTCCG: 0.482
CCCATGGG: 0.257
ACTCGGAA: 0.258
CGCATCCC: 0.29
ACACTTCC: 0.464
AATAGGAT: 0.266
CTGACTTC: 0.324
GGAAGGGA: 0.414
AAGGGATG: 0.337
CGCGGAAG: 0.427
GCGTATCC: 0.266
GGAAGGAA: 0.412
GCCGGGAA: 0.359
AGGGCGGA: 0.364
GGAAGACA: 0.298
CCCGGATC: 0.295

Study 3
Target: Sal-like protein 4, full length isoform B (SALL4, Homo sapiens, UniProt Q9UJQ4-2, residues 1-616)
Method: universal PBM
Form: double-stranded DNA, one strand shown
Medium: in vitro
Concentration: not given
Setting: 8-mer, flanks averaged, mean of replicates
Reading: higher = stronger binding
Quantity: E-score
CTCATTAA: 0.188
CAAAGGAA: 0.134
GATTTTAC: 0.207
CCGTTGAA: 0.0539
GGACGAAC: 0.035
CAGTCAGG: -0.144
AGTAAACA: 0.166
GCACGAAA: 0.0444
AGCGGGAA: -0.079
ACGAACTC: -0.123
ATGTGCGA: -0.0641
ACCTGAAA: 0.0463
GGTTACAA: 0.197
AAGAGGGT: -0.0418
ACTCCGGA: -0.054
AGAGGAAT: -0.00108
GAGCCGAC: -0.387
AAAGTCAT: 0.164
AATCGTAG: 0.244
GCACCTCC: -0.341
GCTATTCA: 0.14
CACCCTAC: -0.0464
AGATCTAT: 0.214
AGCCAGAA: -0.144
ATAGGGAA: -0.0505

Study 4
Target: RNA binding protein fox-1 homolog 2, RRM domain, GST-SBP tag (RBFOX2, Homo sapiens, UniProt O43251-10, residues 100-194)
Method: RNA Bind-n-Seq
Form: RNA
Medium: in vitro
Concentration: 365 nM
Setting: natural RNA segment, single round, ends assumed
Baseline: no-protein control
Reading: higher = stronger binding
Quantity: RBNS enrichment (R)
Shared flanks, not repeated: GGGAGUUCUACAGUCCGACGAUC … UGGAAUUCUCGGGUGCCAA
Construct (chain): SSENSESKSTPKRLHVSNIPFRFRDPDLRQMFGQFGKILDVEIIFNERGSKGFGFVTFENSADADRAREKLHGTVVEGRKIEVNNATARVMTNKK
UGAUGCCAUAAUUUUCUAUGGCUCACUAGCUACACUUCCUAGACAUGAGGACUGAUUCCUGUUCACACAACAAAUAUUCAGUGAAUGUCUACUAUGUGCCAGGUUCUGGG: 0.218
GGGAACGGGUGUGAGCAGCUCUGGCUCCUGACCCUCACCGGGUCCGCUUUGCCCCAGUGAAGAGACAGCAUUCCUUCCUGUGCAGACCUGAGUGCAGAGUGUGUCCAUCU: 0.299
UAUAAGAUUUGAGGUCAGCCAUCUUCAAAAAAGAAAAAAAAAUUGACUCAAGAAAGUACAAGUAAACUAUACACCUUUUUUUCAUAAGUUUUAGGAACUGUAGUAAUGUG: 0.531
GUGGUUGGAGGGCUGGUUCAGGUGCCCUGGAGGGAAGGGGAAGCCUGUGGCCCUGAUUUGUUCAGAGCCCAUUCUCCCUUGCCUCCCCUUUUGAGACUGGAGCCAACCCU: 0.35
AGAAGCAUUGAAAACAAAGACAUUCUUCCCACUUCUUGGAUUUUUAAACCACAGUCUGGAGUGAUAGCUACUGUAGAAAGGAAAUAGACUUUGUAUGAACUCUUUAAGUU: 0.612
GAAUUGGAUUUUCCUUUUCAAAAUGCACUUUGCUUUUUUUGUAUGUUUUGUUAUGUUGAGAUGUUUCUAAAGAAAAGAUUUUAUGUAAUUAUAAGAUGAAGCGUAGUGAA: 0.998
UUACUGGGACACAAUCACCACUCAGCUAGAAUGGAGAUUCAAGGAAAUGGAAGGUACUAGAAACAGACUCCUCCAGCCUCCUCCCCAUAGAAUCCUAAGGGUGGGAAGAA: 0.318
GAGUAGAUUUUCUUGGAUUUCAGAACAUCUAGCAUGACUCUGAAGGAUACCACAUGUUUUAUAUAUAAAUAAUUACUGUUUAUGAUAUAGACAUUGAUAUUGACUAUUUA: 3.02
UAUUUAUUGAUUUGUAACAACUUGUUUUUAACCAAACUUUGUAGCAUGGAAAAAAUUUUCCAUCCACAAAUACAAACAUGAAUAAAUACAUUCAGAAUGUUGGCACCAUG: 0.327
AGGGGCUCCCAGCCCUCCUUCCCAGGCUGAUGCUGGGUCCUCUCUCUCUUUGGGGCUUCUCCCUCCCGUUUCAGGGGAAAGGUCUGAGUCUCCACGUUUCAGACCAGCUU: 0.24
UGUACAGGAAUGUGAAGGGAGGCCUCUGAGCAGUCCAGGGUGUGCUUGACAAAGUCCCAAGUGCUCAGGACUUUUAGCCCUGUCUACUUUGGCUUGGUUUGGAUGAUUCU: 0.722
AGUAAGCAGACUUAGGAGAAUAUUUGUUUUAAAAUUCAUGUAACAGAUUUCCCUUUGAAGAAACACUUCUGACAUGGGUAAUUUCUCAAUCAGGGGUCACUUUUAUGAAC: 0.436

Study 5
Target: Interferon regulatory factor 5, full length, phosphomimetic (IRF5, Homo sapiens, UniProt Q13568-2, residues 1-514, S451D/S453D/S456D/S462D)
Method: protein-binding microarray
Form: double-stranded DNA, one strand shown
Medium: in vitro
Concentration: 940 nM top
Setting: 60-bp whole probe
Together with: salmon DNA 0.4 mg/ml
Baseline: random background probes
Reading: higher = stronger binding
Quantity: fitted relative affinity
Shared flanks, not repeated: GCCTAGCAC … GTCTTGATTCGCTTGACGCTGCTG
GTCGGACTGCTACTGCTGACGTGCTAG: -0.546 z-score
TTAGAACTCAGTTTCGATTAGTGCTAG: 8.57 z-score
ATTTTTTTCATTATTGTTTCGTGCTAG: 2.38 z-score
GACGGTATCGCACTGGGGACGTGCTAG: 1.45 z-score
GACAGACTGGACTATCGGGACGTGCTA: -0.446 z-score
TTAGGACTGGGTCTCGGTTAGTGCTAG: 1.21 z-score
TTAGGTTTCGACTATCGGTTGGTGCTA: 9.5 z-score
TTAGATATCGACTTTCGGTTAGTGCTA: 3.6 z-score
TCAGGTTTCCTTATCCTTTAGTGCTAG: 1.72 z-score
TTAGATCTTAGACTGGATTAGTGCTAG: -0.294 z-score
TTAGGTTTCAGGACTGGGTTAGTGCTA: 3.11 z-score
GACGGTTTCCTTATCCTCACGTGCTAG: 1.86 z-score
TTAGGTTTCGACACTCGGTTAGTGCTA: 8.24 z-score
TTAGGTTCCGGTTTCCGTTAGTGCTAG: 4.55 z-score
TTAGGACTGCGGTATCGGTTAGTGCTA: 2.59 z-score
TCACTTTTGAGAGATGGAACTGTGCTA: -0.0032 z-score
GACGGTTTCGGGATTGGGGACGTGCTA: 7.04 z-score
TTAGGACTGGGGTATCGGTTGGTGCTA: 2.32 z-score
ACTCATTTTCATTTTGTGTCGTGCTAG: 1.29 z-score
GACGAGATCGGGACTGGAGACGTGCTA: 0.212 z-score
TTCCCAATGGTCTTTCCACTTGTGCTA: 0.753 z-score
AGGCATGTGGGTTCCATCATGTGCTAG: -0.225 z-score
TTAGGTATCCTACAGCTTTAGTGCTAG: 0.0249 z-score
TTAGATCTCAGTATCAATTAGTGCTAG: 1.04 z-score
TCATCTTTTCTTTTCTTACTGTGCTAG: 2.02 z-score

Repeated from above (study 2):
CCCGGATC: 0.295
ACTCGGAA: 0.258
TCCCGCCA: 0.292
GGAAGGAA: 0.412
AAGGGATG: 0.337
CGCATCCC: 0.29
GGAAGGGA: 0.414
CTGACTTC: 0.324
GCGTATCC: 0.266
GGAAGACA: 0.298
